Published values gathered from unrelated publications.
“And” joins repeats or separate records; there may be more than shown. Numbers after ± are the reported error.

| Molecule | tested on | test | test system | conditions | how to read | measurement | result |
| --- | --- | --- | --- | --- | --- | --- | --- |
| epoetin alfa | UT7/EPO | RT-qPCR, item: AREG | – | concentration not given, 90 min | baseline: vehicle | mRNA fold induction | 2.6 fold |
| Pam2CSK4 | TLR2 | agonist, RT-qPCR, item: Marco | BV-2 | 1.0 µM | baseline: untreated cells | relative mRNA level | 2.23 and 2.98 and 3.75 |
| SEKHFRETEV | human MAGI1-2/6 PDZ construct (MBP fusion) | automated holdup | peptide, purified PDZ protein | concentration not given, unit not given | baseline: biotin control resin, higher = stronger binding | binding intensity | 0.396 |
| CCT3 | – | co-immunoprecipitation | human RBC cytosol | DSSO crosslinker, unit not given, together with: Band 3 peptide 1-56 bait | baseline: negative control | co-IP enrichment | 4380 |
| GSGAGIATEV | human MAGI1-2/6 PDZ construct (MBP fusion) | automated holdup | peptide, purified PDZ protein | concentration not given, unit not given | baseline: biotin control resin, higher = stronger binding | binding intensity | 0.0401 |
| maraviroc | GSK-3α | – | mice, NSG hu-PBL, HIV-infected, brain SSC region | ip, 120 mg/kg twice daily, 3 weeks post-infection, GSK-3α, total, normalized to | baseline: untreated HIV-infected mice | phospho-GSK-3α decrease | 2.7 fold |
| GEMVGQARILAQATSDLVNAIKDA | vinculin head domain Vd1 | complex rupture, AFM single-molecule force spectroscopy | peptide | double traces, C-terminal pulling, 800 nm/s | – | rupture force FWHM lower side | 13.6 pN |
| MTVCNASQRQAHAQATAVSL | H358 | phage binding | peptide | – | baseline: targeting over control phage | selectivity ratio | 0.9 ± 0.29 |
| GLFQWIAQA | Jurkat T cells expressing 1G4 TCR | NFAT-eGFP reporter, fluorescence microscopy | peptide | concentration not given, HLA-A*02:01 NY-ESO system | – | reporter activation | 0.00922% |
| AAASMWR | MsrA and MsrB | LC-MS/MS | peptide, acetylated Escherichia coli proteome | 10 min, pH 7.5, 37 °C, together with: MsrA 0.54 µM, MsrB 2.02 µM | – | fractional oxidation | 0.403 |
| ILEAAKSIAAATSALVKAASAAQRE | vinculin head domain Vd1 | complex rupture, AFM single-molecule force spectroscopy | peptide | double traces, C-terminal pulling, 800 nm/s | – | rupture force FWHM lower side | 7.43 pN |
| AAAEGEMK | MsrA and MsrB | LC-MS/MS | peptide, actinonin-treated Escherichia coli proteome | 20 min, pH 7.5, 37 °C, together with: MsrA 0.54 µM, MsrB 2.02 µM | – | fractional oxidation | 0.469 |
| GSGAGICTIV | human MAGI1-2/6 PDZ construct (MBP fusion) | surface plasmon resonance | peptide | concentration not given | higher = stronger binding | normalised SPR binding response | 6.8 normalised RU |
| Peginesatide | UT7/EPO | phosphorylation, agonist, item: phospho-ERK1/2 | – | 10 min | – | EC50 | 0.354 nM |
| Pam3CSK4 | TLR2 | agonist, RT-qPCR, item: Mrc1 | BV-2 | 1.0 µM | baseline: untreated cells | relative mRNA level | 0.209 and 0.247 and 0.252 |

Repeated from above:
| Molecule | tested on | test | test system | conditions | how to read | measurement | result |
| --- | --- | --- | --- | --- | --- | --- | --- |
| Pam3CSK4 | TLR2 | agonist, RT-qPCR, item: Mrc1 | BV-2 | 1.0 µM | baseline: untreated cells | relative mRNA level | 0.209 and 0.247 and 0.252 |
| maraviroc | GSK-3α | – | mice, NSG hu-PBL, HIV-infected, brain SSC region | ip, 120 mg/kg twice daily, 3 weeks post-infection, GSK-3α, total, normalized to | baseline: untreated HIV-infected mice | phospho-GSK-3α decrease | 2.7 fold |
